Measured values collected from several papers.
Each numbered part is a random draw from the data of one study; scales do not carry over between parts. “And” joins repeats or separate records; there may be more than shown.
UniProt Q06418, sequence (whole entry, looked up): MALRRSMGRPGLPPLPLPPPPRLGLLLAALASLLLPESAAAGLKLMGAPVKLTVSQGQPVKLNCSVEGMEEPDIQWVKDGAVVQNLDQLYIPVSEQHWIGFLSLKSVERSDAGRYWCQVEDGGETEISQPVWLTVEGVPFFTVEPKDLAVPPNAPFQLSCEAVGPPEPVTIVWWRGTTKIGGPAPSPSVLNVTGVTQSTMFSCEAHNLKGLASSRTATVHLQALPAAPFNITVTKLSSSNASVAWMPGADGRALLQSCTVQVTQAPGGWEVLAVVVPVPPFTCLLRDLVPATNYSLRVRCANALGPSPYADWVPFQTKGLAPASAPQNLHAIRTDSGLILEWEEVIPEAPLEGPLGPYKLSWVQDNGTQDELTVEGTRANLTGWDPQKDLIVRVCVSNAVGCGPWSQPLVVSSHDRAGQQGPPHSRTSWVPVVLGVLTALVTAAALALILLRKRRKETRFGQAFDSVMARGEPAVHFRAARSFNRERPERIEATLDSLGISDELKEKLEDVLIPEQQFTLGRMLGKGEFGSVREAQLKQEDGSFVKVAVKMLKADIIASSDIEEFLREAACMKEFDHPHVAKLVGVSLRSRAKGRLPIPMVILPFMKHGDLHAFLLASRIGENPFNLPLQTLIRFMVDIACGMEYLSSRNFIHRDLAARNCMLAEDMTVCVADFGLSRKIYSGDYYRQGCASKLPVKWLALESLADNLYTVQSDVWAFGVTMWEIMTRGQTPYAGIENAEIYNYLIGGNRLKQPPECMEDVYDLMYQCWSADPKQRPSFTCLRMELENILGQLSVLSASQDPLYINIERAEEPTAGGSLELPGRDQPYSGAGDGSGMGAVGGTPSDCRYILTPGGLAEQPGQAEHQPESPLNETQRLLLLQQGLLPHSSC
UniProt P29597, sequence (whole entry, looked up): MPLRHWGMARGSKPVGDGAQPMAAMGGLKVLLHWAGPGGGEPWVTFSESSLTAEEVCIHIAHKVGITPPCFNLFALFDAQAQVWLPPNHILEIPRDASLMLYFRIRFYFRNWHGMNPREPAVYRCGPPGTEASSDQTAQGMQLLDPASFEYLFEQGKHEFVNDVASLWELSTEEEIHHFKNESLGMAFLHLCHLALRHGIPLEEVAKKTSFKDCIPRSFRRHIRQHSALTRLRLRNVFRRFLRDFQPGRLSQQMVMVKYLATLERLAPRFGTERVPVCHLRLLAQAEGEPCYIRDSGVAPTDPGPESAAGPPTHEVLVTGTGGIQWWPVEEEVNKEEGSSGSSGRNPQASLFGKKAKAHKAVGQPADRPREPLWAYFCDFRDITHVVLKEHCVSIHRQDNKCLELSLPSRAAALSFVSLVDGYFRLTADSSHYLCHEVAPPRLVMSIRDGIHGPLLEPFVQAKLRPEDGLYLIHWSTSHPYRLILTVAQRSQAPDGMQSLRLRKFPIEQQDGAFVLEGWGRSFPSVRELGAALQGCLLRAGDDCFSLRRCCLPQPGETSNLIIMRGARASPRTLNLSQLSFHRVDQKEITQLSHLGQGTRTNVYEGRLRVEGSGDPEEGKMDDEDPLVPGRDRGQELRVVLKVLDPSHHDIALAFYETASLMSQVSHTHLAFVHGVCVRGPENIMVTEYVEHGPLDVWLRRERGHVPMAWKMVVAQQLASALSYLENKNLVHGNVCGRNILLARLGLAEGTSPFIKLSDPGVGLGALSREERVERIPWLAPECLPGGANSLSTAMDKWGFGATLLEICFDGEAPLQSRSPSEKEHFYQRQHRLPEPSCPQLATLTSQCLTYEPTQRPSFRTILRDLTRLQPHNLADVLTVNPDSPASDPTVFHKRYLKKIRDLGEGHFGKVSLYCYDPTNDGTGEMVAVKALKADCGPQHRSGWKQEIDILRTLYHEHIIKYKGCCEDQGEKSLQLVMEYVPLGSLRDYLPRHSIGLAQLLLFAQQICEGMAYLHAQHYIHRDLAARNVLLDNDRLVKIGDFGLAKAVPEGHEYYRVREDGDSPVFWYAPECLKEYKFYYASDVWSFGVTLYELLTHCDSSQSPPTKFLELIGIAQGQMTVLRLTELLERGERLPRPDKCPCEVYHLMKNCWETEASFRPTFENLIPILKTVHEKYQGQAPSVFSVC
UniProt Q9H0K1, sequence (whole entry, looked up): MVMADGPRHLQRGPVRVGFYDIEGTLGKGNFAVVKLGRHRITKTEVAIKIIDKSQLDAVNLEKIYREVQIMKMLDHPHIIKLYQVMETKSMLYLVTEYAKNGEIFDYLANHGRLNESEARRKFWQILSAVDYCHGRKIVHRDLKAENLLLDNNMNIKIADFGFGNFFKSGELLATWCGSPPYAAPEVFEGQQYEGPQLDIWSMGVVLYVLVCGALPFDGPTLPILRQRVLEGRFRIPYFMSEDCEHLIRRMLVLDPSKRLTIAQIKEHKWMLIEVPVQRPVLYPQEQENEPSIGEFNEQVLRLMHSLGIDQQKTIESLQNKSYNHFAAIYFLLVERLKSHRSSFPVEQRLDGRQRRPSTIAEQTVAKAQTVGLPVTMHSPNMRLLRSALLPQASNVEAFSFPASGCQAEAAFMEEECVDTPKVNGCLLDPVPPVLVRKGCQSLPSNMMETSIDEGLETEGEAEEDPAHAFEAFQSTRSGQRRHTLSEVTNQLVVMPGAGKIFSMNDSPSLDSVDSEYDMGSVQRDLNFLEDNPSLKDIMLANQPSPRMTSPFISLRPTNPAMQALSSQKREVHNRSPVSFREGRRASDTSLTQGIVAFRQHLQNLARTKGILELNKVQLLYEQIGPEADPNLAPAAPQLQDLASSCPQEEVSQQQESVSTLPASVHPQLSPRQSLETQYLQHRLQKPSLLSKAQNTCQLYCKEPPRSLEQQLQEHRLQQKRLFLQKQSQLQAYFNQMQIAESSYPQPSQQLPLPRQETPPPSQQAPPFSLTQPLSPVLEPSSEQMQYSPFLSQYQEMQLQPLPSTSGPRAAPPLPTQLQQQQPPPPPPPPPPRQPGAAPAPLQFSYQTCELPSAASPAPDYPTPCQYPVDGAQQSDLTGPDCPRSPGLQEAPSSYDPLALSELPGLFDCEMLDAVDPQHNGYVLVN
UniProt Q9UF33, sequence (whole entry, looked up): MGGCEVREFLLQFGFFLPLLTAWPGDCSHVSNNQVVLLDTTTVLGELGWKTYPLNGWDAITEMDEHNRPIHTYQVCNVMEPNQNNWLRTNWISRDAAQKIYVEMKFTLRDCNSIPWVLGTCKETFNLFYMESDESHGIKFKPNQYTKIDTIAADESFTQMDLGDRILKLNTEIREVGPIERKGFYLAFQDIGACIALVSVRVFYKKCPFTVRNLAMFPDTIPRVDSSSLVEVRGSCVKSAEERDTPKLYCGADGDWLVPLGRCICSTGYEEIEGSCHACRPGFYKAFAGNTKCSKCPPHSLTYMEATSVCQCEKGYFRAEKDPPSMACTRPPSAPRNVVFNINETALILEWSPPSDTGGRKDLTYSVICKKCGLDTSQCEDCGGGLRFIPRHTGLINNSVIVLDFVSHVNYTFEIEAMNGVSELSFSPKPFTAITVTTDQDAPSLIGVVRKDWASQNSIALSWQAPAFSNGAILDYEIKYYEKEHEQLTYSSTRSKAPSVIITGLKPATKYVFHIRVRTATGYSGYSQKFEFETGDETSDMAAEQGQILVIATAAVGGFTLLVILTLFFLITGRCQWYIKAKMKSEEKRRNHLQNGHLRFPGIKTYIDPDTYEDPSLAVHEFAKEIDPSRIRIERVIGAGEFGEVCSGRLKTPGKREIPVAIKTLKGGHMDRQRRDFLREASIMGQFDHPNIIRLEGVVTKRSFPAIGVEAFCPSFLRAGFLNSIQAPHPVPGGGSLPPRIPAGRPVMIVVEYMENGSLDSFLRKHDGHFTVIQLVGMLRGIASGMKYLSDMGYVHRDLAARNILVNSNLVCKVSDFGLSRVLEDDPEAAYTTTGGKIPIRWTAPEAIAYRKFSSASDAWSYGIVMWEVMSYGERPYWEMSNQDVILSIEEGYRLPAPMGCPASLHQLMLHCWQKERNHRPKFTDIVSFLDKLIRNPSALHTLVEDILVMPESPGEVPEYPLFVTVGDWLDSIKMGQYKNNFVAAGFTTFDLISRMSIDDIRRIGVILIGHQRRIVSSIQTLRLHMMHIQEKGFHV
UniProt Q9NQU5, sequence (whole entry, looked up): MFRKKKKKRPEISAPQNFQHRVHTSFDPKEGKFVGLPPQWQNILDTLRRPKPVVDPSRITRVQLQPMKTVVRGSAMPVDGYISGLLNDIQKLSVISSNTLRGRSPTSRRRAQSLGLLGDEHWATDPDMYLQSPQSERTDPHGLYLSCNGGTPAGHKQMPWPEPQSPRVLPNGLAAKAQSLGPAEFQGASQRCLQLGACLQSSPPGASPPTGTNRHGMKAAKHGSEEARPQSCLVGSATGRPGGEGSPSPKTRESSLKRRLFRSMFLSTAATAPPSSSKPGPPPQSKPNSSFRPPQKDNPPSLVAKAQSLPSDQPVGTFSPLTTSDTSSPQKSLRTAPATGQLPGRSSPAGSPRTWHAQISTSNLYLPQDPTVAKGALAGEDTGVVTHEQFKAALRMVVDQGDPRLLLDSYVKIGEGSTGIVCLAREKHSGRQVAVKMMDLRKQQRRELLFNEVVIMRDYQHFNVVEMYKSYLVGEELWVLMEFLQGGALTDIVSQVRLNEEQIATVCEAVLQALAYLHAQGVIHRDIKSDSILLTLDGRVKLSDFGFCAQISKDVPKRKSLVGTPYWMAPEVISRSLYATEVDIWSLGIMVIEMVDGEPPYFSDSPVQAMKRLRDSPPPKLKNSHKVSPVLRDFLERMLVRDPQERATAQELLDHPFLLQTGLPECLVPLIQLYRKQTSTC
UniProt Q14012, sequence (whole entry, looked up): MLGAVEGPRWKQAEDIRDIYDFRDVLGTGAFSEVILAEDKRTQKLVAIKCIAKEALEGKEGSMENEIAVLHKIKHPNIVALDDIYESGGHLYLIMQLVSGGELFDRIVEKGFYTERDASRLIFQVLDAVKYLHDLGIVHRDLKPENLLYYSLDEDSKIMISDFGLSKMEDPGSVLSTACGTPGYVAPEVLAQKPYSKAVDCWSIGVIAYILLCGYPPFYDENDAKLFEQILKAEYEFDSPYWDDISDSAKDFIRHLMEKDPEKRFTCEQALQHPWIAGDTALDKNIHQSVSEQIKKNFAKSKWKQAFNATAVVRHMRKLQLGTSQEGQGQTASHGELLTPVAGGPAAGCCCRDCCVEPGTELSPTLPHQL

Sample 1 — cell line: mouse MPNST tumor cells; technique: high-content nuclear imaging; refers to: cell number; tested at: 10 µM; time: 12 h; notes: mean of 2 replicates; relative to: plate mean; direction: higher = more cells; quantity: nuclei count
Nc1ccn([C@@H]2O[C@H](CO)[C@@H](O)C2(F)F)c(=O)n1: -5.21 z-score and -3.19 z-score
COc1cc(C(=O)N(CCC2CCCN2C)C/C(C)=C/c2ccccc2F)cc(OC)c1OC (centres unmarked): 1.8 z-score
CC1(c2ccccc2)OC(C(=O)O)=CC1=O (centres unmarked): 0.729 z-score
CC(C(=O)O)c1ccc(C(=O)c2cccs2)cc1 (centres unmarked): 2.01 z-score
COc1ccc(C[C@H](N)C(=O)N[C@H]2[C@@H](O)[C@H](n3cnc4c(N(C)C)ncnc43)O[C@@H]2CO)cc1: -6.34 z-score
Cc1oc(-c2ccccc2)nc1CCOc1ccc(CC2SC(=O)NC2=O)c2sccc12 (centres unmarked): -0.789 z-score
CCCN[C@H]1CCc2nc(N)sc2C1: 1.23 z-score and 0.206 z-score and 1.55 z-score
O=C(O)c1ccccc1OP(=O)(O)O: 0.636 z-score
COc1ccc(-c2ccc(OCc3cc(C(=O)NS(=O)(=O)c4ccccc4C)oc3C)cc2)nc1: 0.192 z-score
CC(=O)OCC(=O)C1(O)CCC2C3CCC4=CC(=O)CCC4(C)C3C(O)CC21C (centres unmarked): 2.19 z-score
CN1CCN(c2c(F)cc3c(=O)c(C(=O)O)cn4c3c2SCC4)CC1: 0.637 z-score
COCC(=O)O[C@]1(CCN(C)CCCc2nc3ccccc3[nH]2)CCc2cc(F)ccc2[C@@H]1C(C)C: -5.72 z-score
N=C(N)NC(=N)NCCc1ccccc1: 0.0795 z-score

Sample 2 — sample: plasma; route: oral; quantity: median plasma concentration
SMILES: COc1ccc(-c2c(Nc3ccccn3)[nH]c3c(C4=CCCCC4)c(-c4ccccc4)nn3c2=O)cc1
refers to: S-adenosylmethionine; human patients; 400 mg once daily, 8 h, cycle 1: 19.1 ng/mL
refers to: S-adenosylmethionine; human patients; 400 mg once daily, 6 h, cycle 1: 20.2 ng/mL
human; 200 mg once daily, 3 h, cycle 1: 6390 ng/mL
human; 100 mg once daily, 2 h, cycle 1: 5400 ng/mL
human; 400 mg once daily, 4 h, cycle 1: 2570 ng/mL
refers to: S-adenosylmethionine; human patients; 400 mg once daily, 2 h, cycle 1: 20.1 ng/mL

Sample 3 — effect on: enzyme activity; action: inhibitor; tested at: 0.5 µM; relative to: control; quantity: remaining activity
Structure (SMILES): Nc1nccc(-c2c(-c3ccc(F)cc3)ncn2C2CCNCC2)n1
Protein kinase C theta type (PRKCQ, Homo sapiens, UniProt Q04759): 107%
Ephrin type-A receptor 6 (EPHA6, Homo sapiens, UniProt Q9UF33): 78%
Muscle, skeletal receptor tyrosine-protein kinase (MUSK, Homo sapiens, UniProt O15146): 86.9%
Serine/threonine-protein kinase PAK 6 (PAK6, Homo sapiens, UniProt Q9NQU5): 111%
Serine/threonine-protein kinase Sgk2 (SGK2, Homo sapiens, UniProt Q9HBY8): 96.9%
Tyrosine-protein kinase receptor TYRO3 (TYRO3, Homo sapiens, UniProt Q06418): 96.9%
Calcium/calmodulin-dependent protein kinase type 1 (CAMK1, Homo sapiens, UniProt Q14012): 107%
Ephrin type-A receptor 2 (EPHA2, Homo sapiens, UniProt P29317): 102%
Tyrosine-protein kinase JAK1 (JAK1, Homo sapiens, UniProt P23458): 104%
Insulin-like growth factor 1 receptor (IGF1R, Homo sapiens, UniProt P08069): 104%
Mitogen-activated protein kinase kinase kinase 20 (MAP3K20, Homo sapiens, UniProt Q9NYL2): 98%
Tyrosine-protein kinase Tec (TEC, Homo sapiens, UniProt P42680): 110%
Cyclin-dependent kinase 2, with cyclin E (CDK2, Homo sapiens, UniProt P24941): 92.1%
Serine/threonine-protein kinase PAK 1 (PAK1, Homo sapiens, UniProt Q13153): 97.4%
Casein kinase I isoform delta (CSNK1D, Homo sapiens, UniProt P48730): 1.25%
Casein kinase I isoform epsilon (CSNK1E, Homo sapiens, UniProt P49674): 2.39%
Ribosomal protein S6 kinase alpha-3 (RPS6KA3, Homo sapiens, UniProt P51812): 92.2%
Dual specificity protein kinase CLK2 (CLK2, Homo sapiens, UniProt P49760): 99.7%
SRSF protein kinase 1 (SRPK1, Homo sapiens, UniProt Q96SB4): 103%
Vascular endothelial growth factor receptor 1 (FLT1, Homo sapiens, UniProt P17948): 89.3%
Serine/threonine-protein kinase SIK2 (SIK2, Homo sapiens, UniProt Q9H0K1): 64.7%
Calcium/calmodulin-dependent protein kinase kinase 1 (CAMKK1, Homo sapiens, UniProt Q8N5S9): 103%
Protein kinase C zeta type (PRKCZ, Homo sapiens, UniProt Q05513): 106%

Sample 4 — tested at: 1 µM; quantity: remaining binding
Structure (SMILES): CN(c1ccnc(CNc2nc(Nc3ccc4c(c3)CC(=O)N4)ncc2C(F)(F)F)n1)S(C)(=O)=O
Aurora kinase C (AURKC, Homo sapiens, UniProt Q9UQB9); cell-free assay, competition with immobilised ligand: 14%
Mitogen-activated protein kinase 11 (MAPK11, Homo sapiens, UniProt Q15759); cell-free assay, competition with immobilised ligand: 85%
Inhibitor of nuclear factor kappa-B kinase subunit alpha (CHUK, Homo sapiens, UniProt O15111); cell-free assay, competition with immobilised ligand: 57%
Mitogen-activated protein kinase kinase kinase kinase 2 (MAP4K2, Homo sapiens, UniProt Q12851); cell-free assay, competition with immobilised ligand: 39%
MAP/microtubule affinity-regulating kinase 4 (MARK4, Homo sapiens, UniProt Q96L34); cell-free assay, competition with immobilised ligand: 63%
Non-receptor tyrosine-protein kinase TYK2, JH1 (TYK2, Homo sapiens, UniProt P29597); cell-free assay, competition with immobilised ligand: 27%
Serine/threonine-protein kinase Nek5 (NEK5, Homo sapiens, UniProt Q6P3R8); cell-free assay, competition with immobilised ligand: 63%
Epidermal growth factor receptor (EGFR, Homo sapiens, UniProt P00533, L858R); cell-free assay, competition with immobilised ligand: 73%
Cyclin-dependent kinase 19 (CDK19, Homo sapiens, UniProt Q9BWU1); competition binding: 84%
Myosin light chain kinase family member 4 (MYLK4, Homo sapiens, UniProt Q86YV6); cell-free assay, competition with immobilised ligand: 35%
Serine/threonine-protein kinase PLK2 (PLK2, Homo sapiens, UniProt Q9NYY3); binding, competition with immobilised ligand: 0.5%

Excerpt of the above (sample 2):
refers to: S-adenosylmethionine; human patients; 400 mg once daily, 8 h, cycle 1: 19.1 ng/mL
human; 100 mg once daily, 2 h, cycle 1: 5400 ng/mL
refers to: S-adenosylmethionine; human patients; 400 mg once daily, 6 h, cycle 1: 20.2 ng/mL
human; 200 mg once daily, 3 h, cycle 1: 6390 ng/mL
refers to: S-adenosylmethionine; human patients; 400 mg once daily, 2 h, cycle 1: 20.1 ng/mL
human; 400 mg once daily, 4 h, cycle 1: 2570 ng/mL
